Measured values pooled from the literature.
Compare with care: the assays were run in different laboratories. Values joined by “and” are separate records of one study, mostly repeats; a detail may differ.
SLC6A4: Sodium-dependent serotonin transporter (SLC6A4, Homo sapiens, UniProt P31645)
HTR1B: 5-hydroxytryptamine receptor 1B (HTR1B, Homo sapiens, UniProt P28222)
Chain of UniProt P28222 (whole entry, looked up): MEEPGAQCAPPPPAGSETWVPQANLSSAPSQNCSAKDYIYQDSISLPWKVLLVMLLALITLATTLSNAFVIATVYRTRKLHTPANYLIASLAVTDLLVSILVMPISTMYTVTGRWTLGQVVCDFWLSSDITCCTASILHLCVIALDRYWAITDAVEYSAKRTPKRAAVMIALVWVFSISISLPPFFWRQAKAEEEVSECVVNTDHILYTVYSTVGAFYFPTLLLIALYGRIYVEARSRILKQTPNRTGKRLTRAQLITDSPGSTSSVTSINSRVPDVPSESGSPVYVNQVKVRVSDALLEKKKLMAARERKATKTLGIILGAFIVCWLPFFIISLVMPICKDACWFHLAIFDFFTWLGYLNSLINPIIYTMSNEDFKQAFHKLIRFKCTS
Alpha-carbonic anhydrase: Alpha-carbonic anhydrase (Enterococcus faecium, UniProt Q3XYE8)
SLC22A12: Solute carrier family 22 member 12 (SLC22A12, Homo sapiens, UniProt Q96S37)
STK38: Serine/threonine-protein kinase 38 (STK38, Homo sapiens, UniProt Q15208)
Chain of UniProt Q15208 (whole entry, looked up): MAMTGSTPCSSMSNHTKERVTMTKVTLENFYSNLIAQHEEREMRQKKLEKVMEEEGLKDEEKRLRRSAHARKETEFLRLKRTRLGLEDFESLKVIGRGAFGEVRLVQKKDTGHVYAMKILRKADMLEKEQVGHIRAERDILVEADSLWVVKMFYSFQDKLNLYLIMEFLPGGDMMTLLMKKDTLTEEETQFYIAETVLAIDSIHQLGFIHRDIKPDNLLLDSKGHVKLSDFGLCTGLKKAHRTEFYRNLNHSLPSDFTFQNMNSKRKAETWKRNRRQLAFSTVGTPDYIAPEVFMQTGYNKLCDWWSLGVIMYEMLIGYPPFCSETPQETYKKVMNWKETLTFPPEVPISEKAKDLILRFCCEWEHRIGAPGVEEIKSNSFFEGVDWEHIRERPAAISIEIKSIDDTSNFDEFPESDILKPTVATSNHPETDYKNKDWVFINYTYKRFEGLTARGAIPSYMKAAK
USP49 ZnF-UBD domain: Ubiquitin carboxyl-terminal hydrolase 49, ZnF-UBD domain (USP49, Homo sapiens, UniProt Q70CQ1)
Chain of UniProt Q70CQ1 (whole entry, looked up): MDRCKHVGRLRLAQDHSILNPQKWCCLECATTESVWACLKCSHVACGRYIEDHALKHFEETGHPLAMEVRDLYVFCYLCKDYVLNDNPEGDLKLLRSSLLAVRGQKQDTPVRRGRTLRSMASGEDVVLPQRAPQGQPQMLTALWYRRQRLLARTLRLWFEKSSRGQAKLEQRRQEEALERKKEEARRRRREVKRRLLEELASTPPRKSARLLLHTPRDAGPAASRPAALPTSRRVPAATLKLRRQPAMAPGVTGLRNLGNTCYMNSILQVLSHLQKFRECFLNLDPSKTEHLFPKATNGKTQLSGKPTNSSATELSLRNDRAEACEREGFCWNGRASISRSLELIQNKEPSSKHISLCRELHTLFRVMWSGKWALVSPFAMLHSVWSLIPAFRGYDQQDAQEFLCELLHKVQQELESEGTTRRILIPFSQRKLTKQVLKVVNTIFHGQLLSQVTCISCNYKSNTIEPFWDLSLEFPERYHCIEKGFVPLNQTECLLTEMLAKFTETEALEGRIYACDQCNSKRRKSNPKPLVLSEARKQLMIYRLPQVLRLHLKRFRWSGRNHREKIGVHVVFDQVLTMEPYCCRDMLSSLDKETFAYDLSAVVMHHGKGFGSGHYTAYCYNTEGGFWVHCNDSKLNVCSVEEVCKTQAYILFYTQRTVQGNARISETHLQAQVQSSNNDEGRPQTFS
Chain of UniProt Q9Y210 (whole entry, looked up): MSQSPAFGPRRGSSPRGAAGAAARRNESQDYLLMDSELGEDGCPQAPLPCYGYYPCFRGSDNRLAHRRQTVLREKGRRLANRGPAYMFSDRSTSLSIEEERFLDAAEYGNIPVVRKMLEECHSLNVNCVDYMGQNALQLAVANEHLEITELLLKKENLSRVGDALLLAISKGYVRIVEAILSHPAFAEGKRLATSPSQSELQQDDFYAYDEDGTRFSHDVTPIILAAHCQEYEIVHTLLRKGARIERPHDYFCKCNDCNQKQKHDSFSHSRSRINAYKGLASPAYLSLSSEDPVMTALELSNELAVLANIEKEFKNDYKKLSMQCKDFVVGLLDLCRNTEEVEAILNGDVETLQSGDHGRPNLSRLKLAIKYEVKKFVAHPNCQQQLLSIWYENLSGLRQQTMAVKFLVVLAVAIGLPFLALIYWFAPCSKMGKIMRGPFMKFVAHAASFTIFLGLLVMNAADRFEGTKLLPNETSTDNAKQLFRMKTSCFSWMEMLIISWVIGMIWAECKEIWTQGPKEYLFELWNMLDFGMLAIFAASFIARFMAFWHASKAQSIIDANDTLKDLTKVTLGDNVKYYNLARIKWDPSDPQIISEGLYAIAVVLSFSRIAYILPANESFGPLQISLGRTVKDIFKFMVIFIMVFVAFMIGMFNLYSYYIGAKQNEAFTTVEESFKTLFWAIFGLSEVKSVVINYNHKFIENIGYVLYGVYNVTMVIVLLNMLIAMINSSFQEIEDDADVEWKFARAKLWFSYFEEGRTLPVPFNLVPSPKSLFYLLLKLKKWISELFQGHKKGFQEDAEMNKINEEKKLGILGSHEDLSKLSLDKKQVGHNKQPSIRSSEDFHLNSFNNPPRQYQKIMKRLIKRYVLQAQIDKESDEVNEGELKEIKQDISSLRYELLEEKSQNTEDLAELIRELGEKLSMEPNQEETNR
Chain of UniProt P18113 (whole entry, looked up): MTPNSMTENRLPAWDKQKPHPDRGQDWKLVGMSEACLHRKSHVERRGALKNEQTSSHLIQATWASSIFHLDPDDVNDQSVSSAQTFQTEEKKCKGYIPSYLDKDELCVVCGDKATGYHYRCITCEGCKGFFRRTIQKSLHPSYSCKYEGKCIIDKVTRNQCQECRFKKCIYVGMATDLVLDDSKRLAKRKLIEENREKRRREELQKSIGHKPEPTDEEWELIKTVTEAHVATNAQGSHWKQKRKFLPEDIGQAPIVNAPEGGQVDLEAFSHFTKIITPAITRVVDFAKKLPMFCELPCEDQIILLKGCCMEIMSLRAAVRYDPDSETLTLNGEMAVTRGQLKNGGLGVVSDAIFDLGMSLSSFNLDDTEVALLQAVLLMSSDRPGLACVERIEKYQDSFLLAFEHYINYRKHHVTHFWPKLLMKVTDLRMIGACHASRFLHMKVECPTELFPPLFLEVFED
Chain of UniProt P10721 (whole entry, unmodified, looked up): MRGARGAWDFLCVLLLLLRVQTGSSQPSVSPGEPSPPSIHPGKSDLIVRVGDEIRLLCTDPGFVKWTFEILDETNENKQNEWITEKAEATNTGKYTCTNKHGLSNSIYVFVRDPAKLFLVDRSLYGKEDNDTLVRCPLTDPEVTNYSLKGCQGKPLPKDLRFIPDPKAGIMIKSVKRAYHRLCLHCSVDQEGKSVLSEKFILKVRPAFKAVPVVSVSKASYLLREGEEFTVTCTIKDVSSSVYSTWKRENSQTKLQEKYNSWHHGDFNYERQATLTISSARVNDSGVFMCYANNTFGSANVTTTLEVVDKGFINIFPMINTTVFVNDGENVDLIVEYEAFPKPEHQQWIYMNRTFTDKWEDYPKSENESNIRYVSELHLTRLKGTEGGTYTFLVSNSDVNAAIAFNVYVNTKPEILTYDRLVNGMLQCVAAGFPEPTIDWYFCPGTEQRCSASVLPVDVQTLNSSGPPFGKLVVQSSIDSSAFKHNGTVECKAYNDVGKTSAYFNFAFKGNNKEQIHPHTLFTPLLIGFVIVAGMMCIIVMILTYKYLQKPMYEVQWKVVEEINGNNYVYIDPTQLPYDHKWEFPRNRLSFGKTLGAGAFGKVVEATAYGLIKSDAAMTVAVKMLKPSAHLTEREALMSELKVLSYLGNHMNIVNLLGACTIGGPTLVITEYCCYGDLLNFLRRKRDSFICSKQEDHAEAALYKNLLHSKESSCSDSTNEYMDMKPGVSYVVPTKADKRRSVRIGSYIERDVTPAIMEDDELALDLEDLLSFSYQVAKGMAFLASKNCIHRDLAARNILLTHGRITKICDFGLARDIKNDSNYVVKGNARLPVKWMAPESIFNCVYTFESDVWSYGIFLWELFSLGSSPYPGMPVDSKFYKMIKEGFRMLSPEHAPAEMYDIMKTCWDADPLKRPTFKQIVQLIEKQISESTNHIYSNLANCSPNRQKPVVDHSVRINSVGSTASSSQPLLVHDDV
Chain of UniProt P49840 (whole entry, looked up): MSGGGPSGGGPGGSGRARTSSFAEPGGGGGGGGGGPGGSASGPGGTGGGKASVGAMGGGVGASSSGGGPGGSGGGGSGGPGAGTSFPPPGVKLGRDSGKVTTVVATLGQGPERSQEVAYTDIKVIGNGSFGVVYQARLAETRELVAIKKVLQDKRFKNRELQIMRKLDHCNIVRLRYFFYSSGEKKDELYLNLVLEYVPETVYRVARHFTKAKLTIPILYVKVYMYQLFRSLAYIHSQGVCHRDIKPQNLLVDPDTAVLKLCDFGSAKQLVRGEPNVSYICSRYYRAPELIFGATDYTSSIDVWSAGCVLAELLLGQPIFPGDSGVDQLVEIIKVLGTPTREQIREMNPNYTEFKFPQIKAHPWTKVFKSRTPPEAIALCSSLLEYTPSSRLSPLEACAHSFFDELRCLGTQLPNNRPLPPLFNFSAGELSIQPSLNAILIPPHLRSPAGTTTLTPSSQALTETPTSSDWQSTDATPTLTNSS
Chain of UniProt O75914 (whole entry, looked up): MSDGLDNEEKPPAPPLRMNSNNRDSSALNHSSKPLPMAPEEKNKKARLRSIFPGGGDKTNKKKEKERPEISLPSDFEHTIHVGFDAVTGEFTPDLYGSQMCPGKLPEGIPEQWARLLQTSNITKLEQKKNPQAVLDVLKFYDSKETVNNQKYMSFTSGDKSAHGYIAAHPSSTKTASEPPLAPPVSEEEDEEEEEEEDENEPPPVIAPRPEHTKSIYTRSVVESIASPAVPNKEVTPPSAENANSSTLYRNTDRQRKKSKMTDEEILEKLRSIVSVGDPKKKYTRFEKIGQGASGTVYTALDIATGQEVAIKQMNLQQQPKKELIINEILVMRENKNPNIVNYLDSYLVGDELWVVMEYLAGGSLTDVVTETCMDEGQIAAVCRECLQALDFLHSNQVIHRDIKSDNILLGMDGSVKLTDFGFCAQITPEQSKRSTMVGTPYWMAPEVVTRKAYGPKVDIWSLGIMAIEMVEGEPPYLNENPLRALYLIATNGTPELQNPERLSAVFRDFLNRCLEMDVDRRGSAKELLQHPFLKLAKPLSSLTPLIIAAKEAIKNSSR

SMILES	tested on	assay	test system	setting	scale	measurement	value
CCN1/C(=C/C(C)=O)Sc2ccc(F)cc21	L-type calcium channel Benzothiazepine site, rat	radioligand binding	–	concentration not given	–	inhibition	2.76%
C#Cc1cc(-c2cc(Nc3nc(N[C@@H](C)c4ccc(F)cn4)ncc3Cl)n[nH]2)ccc1C=O	GSK3A (Homo sapiens, UniProt P49840)	enzyme activity, inhibitor	–	0.2 µM	–	inhibition	7.01%
CN(C(=O)n1cnc(-c2ccc[n+]([O-])c2)c1)C1CCCCC1	SLC6A4	binding	–	10 µM	–	inhibition	10.4%
CC(=O)c1nn(CC(=O)N2C[C@H](F)C[C@H]2C(=O)Nc2cccc(Br)n2)c2ccc(-c3cnc(C)nc3)cc12	tryptase (human)	enzyme activity	human lung	10 µM	–	inhibition	1.4%
[2H]c1cc(C)c(NC(=O)c2cnc(Nc3cc(N4CCC(O)CC4)nc(C)n3)s2)c(Cl)c1	YES1 (Homo sapiens, UniProt P07947, T348I)	–	–	0.001 µM	–	inhibition	< 50%
O=C(CN1CCO[C@H](COc2ccccc2)C1)N1CCc2ccccc21	HTR1B	radioligand binding	–	concentration not given, with: [3H]5-CT	–	inhibition	36.4%
O=P(O)(O)O[C@H]1O[C@H](CO)[C@@H](O)[C@H]1O	–	binding, equilibrium dialysis LC-MS	–	5 µM, thermostabilized A2AR-BRIL construct	baseline: no-protein control, direction not given	z-scored log2 fold change	0.268
Cc1cc2c(cc1N1C(=O)c3cccc4cccc(c34)C1=O)n(C)c(=O)n2C	Transcription initiation factor TFIID subunit 1, BD2; with histone H4 (TAF1, Homo sapiens, UniProt P21675)	bromodomain 2 binding, NanoBRET	–	10 µM	–	inhibition	55%
O=C(Nc1cccc2c(=O)cc(-c3nnn[nH]3)oc12)c1ccc(OCCCCc2ccccc2)cc1	Volume-regulated anion channel subunit LRRC8C, part LRRC8A IL1 chimera (LRRC8C, Homo sapiens, UniProt Q8TDW0, E6A)	ion current, inhibitor, whole-cell patch clamp	HCT LRRC8-/- cells	0.1 µM, -100 mV	–	inhibition	12.3% and 32.6% and 25.6% and 12.6% and 21.5%
O=C(NO)c1ccc(CN2CCCCc3ccccc32)c(F)c1	SLC6A4	radioligand binding, PDSP radioligand binding	–	10 µM	–	inhibition	-4.91%
Cc1nn(-c2nc3ccccc3s2)c(O)c1C(c1ccccc1C(=O)O)c1c(C)nn(-c2nc3ccccc3s2)c1O	Cyclic GMP-AMP synthase, catalytic domain; with DNA (CGAS, Homo sapiens, UniProt Q8N884)	cGAS phase separation, inhibitor	–	10 µM	–	inhibition	91.5%
Cc1ccc(NC(=S)N/N=C/c2cn(S(=O)(=O)c3ccc(C)cc3)c3ccccc23)cc1	mushroom tyrosinase	enzyme activity, inhibitor	–	0.5 mM, with: L-DOPA substrate	–	inhibition	91.7%
COc1cc2c(cc1OC)C(=O)C(CC1CCN(Cc3ccccc3)CC1)C2 (stereo not drawn)	HTR1B	radioligand binding	–	concentration not given, with: [3H]5-CT	–	inhibition	-3.2%
COc1ccc(F)cc1C(=O)NCc1ccc(-c2nn([C@@H](C)C(F)(F)F)c(N)c2C(N)=O)cc1	CSK (Homo sapiens, UniProt P41240)	probe binding, competitive chemoproteomics	human PBMCs	1 µM	–	inhibition	7.1%
Clc1ccc(-c2cn[nH]c2)s1	DYRK1A (Homo sapiens, UniProt Q13627)	enzyme activity	–	10 µM	–	inhibition	> 50%
NS(=O)(=O)c1nnc(NC(=O)CCCC2CCCCC2)s1	Alpha-carbonic anhydrase	CO2 hydration, inhibitor, stopped-flow kinetics	–	–	–	Ki	0.0942 µM
C=CC(=O)N1CCC(COCC(=O)N2CCN(c3nc(-c4cnc(N)nc4C(F)F)nc(N4CCOC[C@@H]4C)n3)CC2)CC1	PAK3 (Homo sapiens, UniProt O75914)	KINOMEscan	–	1 µM	–	remaining binding	83%
Cc1ccc(S(=O)(=O)NC(=O)c2cc3ccccc3n2Cc2ccc(C3CC3)c3ccccc23)cc1	SLC22A12	uric acid uptake, inhibitor	HEK293 transiently expressing URAT1	5 µM, with: [14C]uric acid	–	inhibition	4.62%
O=C(Nc1ccc(S(=O)(=O)N2CCC(Cl)CC2)cc1)c1ccc([N+](=O)[O-])o1	Thyroid hormone receptor beta (Rattus norvegicus, UniProt P18113)	biochemical	–	10 µM	–	inhibition	7%
Clc1cncc(OC[C@H]2CN(CCN3CCc4ccccc43)CCO2)c1	HTR1B	radioligand binding	–	concentration not given, with: [3H]5-CT	–	inhibition	-4.5%
Cc1cc2c(cc1N1C(=O)c3cccc4c(CCCO)ccc(c34)C1=O)n(C)c(=O)n2C (racemic)	Bromodomain-containing protein 3, BD2 (BRD3, Homo sapiens, UniProt Q15059)	binding, BROMOscan binding	–	1000 nM	–	inhibition	89%
Cc1ccc(S(=O)(=O)n2cc(/C=N/NC(=S)Nc3ccc([N+](=O)[O-])cc3)c3ccccc32)cc1	mushroom tyrosinase	enzyme activity, inhibitor	–	0.5 mM, with: L-DOPA substrate	–	inhibition	92.7%
Cc1cc(-c2ccnc3[nH]cc(F)c23)cc(F)c1[C@@]1(O)[C@H](C)CN(C(=O)CN)C[C@@H]1C	STK38	ATP probe binding, KiNativ, measured: Lys1 site	HEK293T cell lysate	10 µM	–	inhibition	58.1%

SMILES	tested on	assay	test system	setting	scale	measurement	value
CCNCc1cnn(-c2ccc(-n3ccc(Cl)c(Cl)c3=O)cc2)c1C(F)(F)F	TRPC6 (Homo sapiens, UniProt Q9Y210)	ion current, inhibitor, whole-cell patch clamp	–	10 µM, with: CCh-activated	–	inhibition	no inhibition
Cc1ccc(CNC(=S)N/N=C/c2cn(S(=O)(=O)c3ccc(C)cc3)c3ccccc23)cc1	mushroom tyrosinase	enzyme activity, inhibitor	–	0.5 mM, with: L-DOPA substrate	–	inhibition	85.4%
CC(C)[C@H](NC(=O)[C@H](Cc1ccc(O)cc1)NC(=O)[C@H](Cc1ccc(O)cc1)NC(=O)[C@@H]1CCCN1C(=O)[C@H](CCC(=O)O)NC(=O)[C@H](CCC(=O)O)NC(=O)[C@H](Cc1c[nH]c2ccccc12)NC(=O)[C@@H]1CCCN1C(=O)[C@@H](NC(=O)[C@H](CCC(N)=O)NC(=O)c1ccc2c(c1)C(=O)OC21c2ccc(O)cc2Oc2cc(O)ccc21)C(C)C)C(=O)N[C@H](C(=O)N[C@@H](CCCCN)C(=O)N[C@@H](CCCCN)C(=O)N[C@@H](CO)C(=O)N[C@@H](CO)C(=O)NCC(=O)NCC(N)=O)C(C)C	–	–	human, plasma	intravenous infusion, 200 mg, 2 h	–	plasma concentration	262 ng/mL
COc1cc(-c2cc(C(C)=O)n3ccccc23)c(OC)cc1Cn1ccnc1	Bromodomain-containing protein 3, BD1 (BRD3, Homo sapiens, UniProt Q15059)	–	–	1 µM	–	inhibition	7.18%
CC[C@@H]1[C@H](F)C(=O)N[C@@H]1COc1nccc2cc(C(N)=O)c(OC)cc12	MAP4K5 (Homo sapiens, UniProt Q9Y4K4)	ATP-site probe binding, ActivX profiling, measured: KHS1	THP-1 cell lysate	0.01 mM, Lys1 site	–	inhibition	-0.852%
NS(=O)(=O)c1nnc(NC(=O)Cc2ccccc2)s1	Alpha-carbonic anhydrase	CO2 hydration, inhibitor, stopped-flow kinetics	–	–	–	Ki	0.0594 µM
[2H]c1cc(C)c(NC(=O)c2cnc(Nc3cc(N4CCCCC4)nc(C)n3)s2)c(Cl)c1	KIT (Homo sapiens, UniProt P10721, V560G)	–	–	0.01 µM	–	inhibition	30 to 90%
CC(=O)N[C@H]1[C@@H](OP(=O)(O)OP(=O)(O)OC[C@H]2O[C@@H](n3ccc(=O)[nH]c3=O)[C@H](O)[C@@H]2O)O[C@H](CO)[C@@H](O)[C@@H]1O	–	binding, equilibrium dialysis LC-MS	–	5 µM, thermostabilized A2AR-BRIL construct	baseline: no-protein control, direction not given	z-scored log2 fold change	0.075
O=C(O)CCC(=O)c1ccc(S(=O)(=O)N2CCCC2)cc1	USP49 ZnF-UBD domain	–	–	–	–	Kd	> 1000 µM
c1cncc(OC[C@@H]2CN(CCN3CCc4ccccc43)CCO2)c1	HTR1B	radioligand binding	–	concentration not given, with: [3H]5-CT	–	inhibition	33.7%
COc1cc(C(=O)NS(=O)(=O)c2ccccc2C)ccc1Cc1cn(C)c2ccc(NC(=O)OC3CCCC3)cc12	Volume-regulated anion channel subunit LRRC8C, part LRRC8A IL1 chimera (LRRC8C, Homo sapiens, UniProt Q8TDW0, L136K)	ion current, inhibitor, whole-cell patch clamp	HCT LRRC8-/- cells	1 µM, +100 mV	–	inhibition	84.7% and 79.6% and 85.6% and 88.3% and 86.1%
CN1CCN(c2cc(-c3ccncc3)c(-c3ccc4ccccc4c3)nn2)CC1	LPAR3 (Homo sapiens, UniProt Q9UBY5)	antagonist, FLIPR	–	10 µM	–	inhibition	-0.2%
Cc1ccnc(OC[C@H]2CN(CC(=O)N3CCc4ccccc43)CCO2)c1	HTR1B	radioligand binding	–	concentration not given, with: [3H]5-CT	–	inhibition	1.9%
COc1ccc(S(=O)(=O)NC(=O)c2cc3ccccc3n2Cc2ccc(C3CC3)c3ccccc23)cc1	SLC22A12	uric acid uptake, inhibitor	HEK293 transiently expressing URAT1	10 µM, with: [14C]uric acid	–	inhibition	-7.67% and -5.18%
Cc1cc(-c2ccnc3[nH]cc(F)c23)cc(F)c1[C@@]1(O)[C@H](C)CN(C2CCS(=O)(=O)CC2)C[C@@H]1C	STK38	ATP probe binding, KiNativ, measured: Lys2 site	HEK293T cell lysate	0.1 µM	–	inhibition	-2.8%
O=C1c2ccccc2CCN1CCCCN1CCN(c2cccc(Cl)c2Cl)CC1	HTR1B	radioligand binding	–	concentration not given, with: [3H]5-CT	–	inhibition	94.4%
O=C(O)COc1cnc2ccccc2n1	USP49 ZnF-UBD domain	–	–	–	–	Kd	> 1000 µM
COc1ccc2c(c1)C(=O)N(CCCN1CCN(c3ccccc3OC)CC1)C2	HTR1B	radioligand binding	–	concentration not given, with: [3H]5-CT	–	inhibition	72.3%
Cc1nc2sccn2c(=O)c1CCN1CCC(=C(c2ccc(F)cc2)c2ccc(F)cc2)CC1	Diacylglycerol kinase beta (Dgkb, Rattus norvegicus, UniProt P49621)	enzyme activity, DAG kinase	HEK293T lysate overexpressing	50 µM, with: [γ32P]-ATP	baseline: DMSO control	inhibition	~58%
Clc1cccc(OC[C@@H]2CN(CCN3CCc4ccccc43)CCO2)c1	HTR1B	radioligand binding	–	concentration not given, with: [3H]5-CT	–	inhibition	32.6%
Cc1ccc(S(=O)(=O)n2cc(/C=N/NC(=S)Nc3cc(C)cc(C)c3)c3ccccc32)cc1	mushroom tyrosinase	enzyme activity, inhibitor	–	0.5 mM, with: L-DOPA substrate	–	inhibition	90.8%
CC[C@]12CCCN3CCc4c([nH]c5ccccc45)[C@]31N(Cc1cn(Cc3ccccc3)nn1)C(=O)C2	CNR2 (Homo sapiens, UniProt P34972)	beta-arrestin recruitment, antagonist, PathHunter chemiluminescence	–	20 µM, with: agonist at EC80	–	inhibition	60%

A few entries again:
SMILES	tested on	assay	test system	setting	scale	measurement	value
O=C(O)COc1cnc2ccccc2n1	USP49 ZnF-UBD domain	–	–	–	–	Kd	> 1000 µM
COc1ccc2c(c1)C(=O)N(CCCN1CCN(c3ccccc3OC)CC1)C2	HTR1B	radioligand binding	–	concentration not given, with: [3H]5-CT	–	inhibition	72.3%
Cc1nc2sccn2c(=O)c1CCN1CCC(=C(c2ccc(F)cc2)c2ccc(F)cc2)CC1	Diacylglycerol kinase beta (Dgkb, Rattus norvegicus, UniProt P49621)	enzyme activity, DAG kinase	HEK293T lysate overexpressing	50 µM, with: [γ32P]-ATP	baseline: DMSO control	inhibition	~58%
Clc1cccc(OC[C@@H]2CN(CCN3CCc4ccccc43)CCO2)c1	HTR1B	radioligand binding	–	concentration not given, with: [3H]5-CT	–	inhibition	32.6%
